Measurements pooled from the literature.
Parts stem from different laboratories: compare values within a part only. Substitutions count along the parent as printed.

Block 1
Target: Centromere-binding protein 1, full length, N-terminal tag (CBF1, Saccharomyces cerevisiae, UniProt P17106, residues 1-351)
Chain of UniProt P17106 (whole entry, looked up): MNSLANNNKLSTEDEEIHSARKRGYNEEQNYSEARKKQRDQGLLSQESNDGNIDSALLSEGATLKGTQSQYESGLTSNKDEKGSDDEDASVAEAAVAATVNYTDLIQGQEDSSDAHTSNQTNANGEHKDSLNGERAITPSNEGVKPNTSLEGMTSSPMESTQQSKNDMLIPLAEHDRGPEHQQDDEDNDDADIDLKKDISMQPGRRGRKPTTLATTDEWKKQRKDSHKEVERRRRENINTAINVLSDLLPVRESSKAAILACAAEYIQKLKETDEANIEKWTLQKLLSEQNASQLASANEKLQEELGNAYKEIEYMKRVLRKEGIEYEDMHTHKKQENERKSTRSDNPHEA
Technique: protein-binding microarray
Form: double-stranded DNA, one strand shown
Medium: in vitro
Concentration: 0.8 µM
Notes: whole 60-bp probe, no competitor
Direction: higher = stronger binding
Sequence | fluorescence intensity [a.u.]
GAAACGGCATTTTCACTGGTGATGCACGCCCAGTAGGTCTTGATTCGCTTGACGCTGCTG | 533
CTAGAGTGAGGAGAAAACGTGCAGTTAATAAAATTCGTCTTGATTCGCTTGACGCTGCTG | 756
CTACAATCACCCCCTCGTGAGAATTTAATGTGGTTCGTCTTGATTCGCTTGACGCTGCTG | 652
CTATTATATAAATATAGTCAGATGAGTGCTTCATTCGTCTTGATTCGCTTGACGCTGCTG | 581
GAATGCCCTTCTCATCTGACCGCTACCCATATCTAGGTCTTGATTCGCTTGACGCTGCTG | 560
GAATTTCCACCGTGTAAGGTGACGGGACTATGGTAGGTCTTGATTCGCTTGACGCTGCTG | 541
GAAAAAAGATACAAGAACGTGGCGGACAAGAAGTAGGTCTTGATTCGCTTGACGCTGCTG | 606
GAAGACTGTGGTGCTTACGTGATAACAAACAACTAGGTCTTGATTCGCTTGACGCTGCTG | 592
GAATCTCTTAGGTTACACGCAACTAAACTTTTTTAGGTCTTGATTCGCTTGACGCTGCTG | 518
GAATGAAATTCTGTGATCACAATTTTCCTCTAATAGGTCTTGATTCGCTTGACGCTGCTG | 605
CTATCGCAAATTTCTGTCACCTTCTTCTTTATGTTCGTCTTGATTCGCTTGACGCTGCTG | 556
GAAGAACTATTATTTCATCATATGAAAGATTAATAGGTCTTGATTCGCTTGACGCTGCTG | 528
CTATCGTCGACGTGTCATGTGATCAAGCCAATTTTCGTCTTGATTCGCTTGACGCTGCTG | 8810
CTACGCTTGTTTAAACATGTGCTAGGTAAGCGATTCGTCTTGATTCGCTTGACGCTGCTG | 871
CTATGGAACCACTATCATCAGAATTATCGCCAATTCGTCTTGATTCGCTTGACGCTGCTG | 509
CTAGCAGGCTTACGGCAGGTGGTGATTATATTTTTCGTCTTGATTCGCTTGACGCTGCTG | 561
GAATTTCATTATTGGCACGAGTAGCAGTCGTTGTAGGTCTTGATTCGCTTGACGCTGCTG | 655
GAACTTTTCTCCAAGCACGAGTTACAGGAAAGGTAGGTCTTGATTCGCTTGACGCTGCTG | 759
CTAAGGAAGAAGCAACGCACGCATGGAAAACACTTCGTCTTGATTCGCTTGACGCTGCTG | 541

Block 2
Target: RING finger protein unkempt homolog, zinc fingers 1-6, GST-SBP tag (UNK, Homo sapiens, UniProt Q9C0B0, residues 30-357)
Technique: RNA Bind-n-Seq
Form: RNA
Medium: in vitro
Concentration: not given
Notes: RNA with constant flanks, ends assumed
Relative to: input RNA pool
Direction: higher = stronger binding
Residues (chain): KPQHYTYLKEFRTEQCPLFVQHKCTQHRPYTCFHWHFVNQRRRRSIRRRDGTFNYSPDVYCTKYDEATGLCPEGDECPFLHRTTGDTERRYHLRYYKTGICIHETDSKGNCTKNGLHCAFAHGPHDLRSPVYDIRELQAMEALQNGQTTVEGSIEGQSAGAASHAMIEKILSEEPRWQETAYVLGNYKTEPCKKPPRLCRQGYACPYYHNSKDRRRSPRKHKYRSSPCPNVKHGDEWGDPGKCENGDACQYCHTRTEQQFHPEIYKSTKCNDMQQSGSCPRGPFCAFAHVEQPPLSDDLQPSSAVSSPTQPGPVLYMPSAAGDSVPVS
Sequence | bound/input enrichment [ratio]
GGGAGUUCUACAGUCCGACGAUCCCUCCACCAAAUGCAGAUCCUAAUAUGAAGUUAUUUACAAUUCGUGGCACUCCACAACAGACCGACUAUGCUCGGCAACUCAUAGAAGAAAAGAUUGGUGGCCCAGUAAAUCCUUUAGGGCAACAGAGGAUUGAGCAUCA | 0.923
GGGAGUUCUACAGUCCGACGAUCGGCUCCCAUUGUCUCCGCAGAUGCCUCCUGGUCCUGCUACGGUGCUGGGGUUGUUCAGUUUCCGGGGACACGCUCCUAUUCUUUUCUUCGAGACGUCCCGCGGCCGAGAACGGGGUUCUACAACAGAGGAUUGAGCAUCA | 0.086
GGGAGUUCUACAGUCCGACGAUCCAUGAGGAAAGAACAAUUCUCCCUAUGUCGAGAGCAUUCCGCGGUAAACACCUCUCUUUUGCCGUUCGAUUUCCAAACCAGGGCAGACAGGUUGAUGACUUGGAGGUAUGGUCUCAUACACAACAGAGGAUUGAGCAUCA | 0.102
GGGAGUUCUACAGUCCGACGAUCCGGAUCUUUGGUGAAGUGGCCAGGUCUACUGACUCAAAGUCCAUGAAAGUGGUGAGCCUGUUCCGCGAGCAGCCCUUGGCCAAGAAGAAAGAGACUUAUGACUGGUAUCCAAAUCACAACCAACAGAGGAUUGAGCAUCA | 0.0686
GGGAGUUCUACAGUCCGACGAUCUCUAAGGAAGACAAAAUGAAAGAAAGUGAAACAUUUUCCGAUUCAUCUCCCAUUGAGAUAACCGAUGAGUUUCCCACAUUUGUCAGUGCUAAAGAUGAUUCUCCUAAGGAGUACACUGACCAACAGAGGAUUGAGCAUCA | 0.0674
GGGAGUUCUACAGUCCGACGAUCAAUGUGGAACUAAGUUCGCUGGCCCGGCUUCCCAGCUUAAAUAAACUUCGAAAAUUGGAGCUCCGUGAUAAUAUAAUUUCUGGAGGCUUGGAAGUCCUGGCAGAGAAAUGUCCAAAUCUUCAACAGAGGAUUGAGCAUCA | 0.0862
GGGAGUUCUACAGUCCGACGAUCUGCUACCAGACACUGACAGAAAUGCCUAUCAGGUGUGAGCUCUUUGACCAGAACCUGAAGCCCGCUCUGGAGGUGGCAGAGAAGGCUGGAACUUUUGGACCUGGGUCAUAGGCUGAACCUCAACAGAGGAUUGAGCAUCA | 0.14
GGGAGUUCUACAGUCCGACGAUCAUUAAUGCUCUAAUGCAUGCUUUGAUUGAAUUACGGACAAAGGACCCCAACAUAAAAAGUUCCGUUGUUUCUCAGUUUACCACAUUCUUGUCUUUAAUAGAAACACCUCUUAAAGCCUCACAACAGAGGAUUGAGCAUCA | 0.171

Block 3
Target: Histone acetyltransferase KAT6A, winged helix 1, GST fusion (KAT6A, Homo sapiens, UniProt Q92794, residues 1-85)
Technique: protein binding microarray
Form: double-stranded DNA, one strand shown
Medium: in vitro
Concentration: not given
Notes: 8-mer, flanks averaged, mean of 2 arrays, mostly near background
Relative to: not given
Direction: higher = stronger binding
Construct (chain): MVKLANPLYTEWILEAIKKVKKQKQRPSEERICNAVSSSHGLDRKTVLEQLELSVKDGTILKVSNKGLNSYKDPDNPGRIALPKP
Sequence | E-score
AAGTCCGG | 0.0222
CCAGCTGG | -0.252
TACGTCGA | -0.221
ATGCTATA | -0.122
ATCATACC | -0.0309
AGAATTCA | -0.228
CGTATGTC | 0.158
CCATCCAG | -0.18
TTACTCAA | 0.00206
TAAACTAA | -0.22
ATCTTGAC | -0.196
GCCTGTGA | -0.141
GCAGGTGA | -0.211
ATGATTCA | -0.149
ACCTCGTA | -0.0603
GATAGCCC | 0.00408
ATTCATTA | -0.0823
GTGCGCAA | 0.288
AGTCGGAC | -0.0555
ACATAACT | -0.068
GCAGATTA | -0.0731
CCGTAGCA | 0.265
ACATTTTA | -0.012

Block 4
Target: CCNA2, cyclin fold, Cln2 fusion (human)
Technique: yeast growth competition, sequencing
Medium: yeast
Notes: strong parent motif
Relative to: not given
Direction: higher = stronger binding
Starting sequence: PKN2 docking peptide (human); VSAVQKLDFSDTM; partner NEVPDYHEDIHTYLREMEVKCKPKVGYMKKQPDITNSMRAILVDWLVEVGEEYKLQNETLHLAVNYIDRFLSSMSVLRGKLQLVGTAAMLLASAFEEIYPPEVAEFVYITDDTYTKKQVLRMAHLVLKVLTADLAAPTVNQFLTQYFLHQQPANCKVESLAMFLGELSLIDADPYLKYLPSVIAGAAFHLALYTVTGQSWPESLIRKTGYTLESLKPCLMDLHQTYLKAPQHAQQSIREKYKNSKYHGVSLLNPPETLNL
Change | normalised enrichment score
T12Q | 1.34
L7G | -0.601
F9E | -0.27
D11W | 1.23
S2E | 0.0307
T12G | 1.29
K6W | 0.366
S2M | 1.92
M13A | 2.31
A3W | 0.647
K6N | 0.331
T12K | 2.23
K6E | -0.147
S10G | 2.24
D11Q | 1.58
T12W | 2.47
V4K | 3.08
S10Q | 0.571
F9S | 0.394
K6A | 0.961
S2F | 1.15
L7Y | 0.11
D8E | 1.5
M13R | 2.43
L7T | -0.105

For quick reference, copied from above (block 4):
Change | normalised enrichment score
F9S | 0.394
L7T | -0.105
S2F | 1.15
A3W | 0.647
D11W | 1.23
T12G | 1.29
T12W | 2.47
S10G | 2.24
S10Q | 0.571
